Results collected from several papers.
Each line is one published result; not all experiments were run side by side. “And” joins repeats or separate records; there may be more than shown. Numbers after ± are the reported error.

SMILES = [O-][S+]1CCc2nc(N3CCC(c4ncc(Cl)cn4)CC3)nc(NC3(CO)CCC3)c21 (stereo not drawn); test = measured: abdominal distension; system = healthy male humans; setting = 48 mg single dose; endpoint = adverse event incidence; value = 16.7%
SMILES = CC[C@H](C)CCCCC(=O)N[C@@H](CCN)C(=O)N[C@H](C(=O)N[C@@H](CCN)C(=O)N[C@H]1CCNC(=O)[C@H]([C@@H](C)O)NC(=O)[C@H](CCN)NC(=O)[C@H](CCN)NC(=O)[C@H](CC(C)C)NC(=O)[C@@H](Cc2ccccc2)NC(=O)[C@H](CCN)NC1=O)[C@@H](C)O; system = human, critically ill, no AKI, plasma; setting = intravenous, dose not given, mean; endpoint = dose-normalised fAUC(0-24) steady state; value = 0.58 mg·h/L per mg
SMILES = O=C(Nc1ccccc1)C1CCN(C(=O)Oc2cccnc2)CC1; test = adverse event reporting; system = healthy women; setting = oral, 20 mg, 7 days; endpoint = subjects with chest discomfort; value = 0%
SMILES = CCOC(=O)C1=C[C@@H](OC(CC)CC)[C@H](NC(C)=O)[C@@H](N)C1; system = Sprague-Dawley rat male, plasma and urine; setting = oral, 30 mg/kg; endpoint = metabolic clearance; value = 98.8 mL/h
SMILES = O=C(Nc1ccc2c(c1)B(O)OC2)c1cccc(OCc2ccccc2)c1; test = PAMPA; system = pre-coated trilayer membrane; setting = 200 µM, 5 h, pH 7.4, acceptor plate, PBS; endpoint = acceptor concentration; value = 0.64 ± 0.25 µM
SMILES = O=C(O)C(O)(c1cccs1)c1cccs1; system = human, CSF; setting = 2 mg once daily, 5 days, median; endpoint = dose-normalised Cmax; value = 0.017 (ng/mL)/mg
SMILES = Cc1cc(C)c(CNC(=O)c2cc(Cl)c3c(c2C)O[C@@](C)([C@H]2CC[C@H](N(C)C)CC2)O3)c(=O)[nH]1; system = human, relapsed/refractory NHL; setting = concentration not given, treatment-related TEAEs, grade 5; endpoint = Arthralgia incidence; value = 0%
SMILES = NCCCC[C@@H]1NC(=O)[C@@H](Cc2c[nH]c3ccccc23)NC(=O)[C@H](c2ccccc2)NC(=O)[C@@H]2C[C@@H](OC(=O)NCCN)CN2C(=O)[C@H](Cc2ccccc2)NC(=O)[C@H](Cc2ccc(OCc3ccccc3)cc2)NC1=O; system = healthy human volunteers; setting = 600 µg twice daily; endpoint = subjects with injection-site erythema; value = 73%
SMILES = CCCC1CCC(C2CCC(c3ccc(F)c(F)c3)CC2)CC1 (stereo not drawn); system = rat, fetus; setting = 10 ng/mL in perfusate, low dose, mixture of 21 LCMs; endpoint = fetal accumulation; value = 0.163 ± 0.111 ng/g
SMILES = C[C@@H](NC(=O)N1C(=O)[C@H](Cc2ccnc(N)c2)[C@H]1C(=O)O)C1CCCCC1; system = healthy adult Chinese volunteers; setting = continuous intravenous infusion, 0.3 mg/kg/h, 5-day infusion, CTCAE 5.0 grading; endpoint = incidence of drug-related AEs; value = 12.5%
SMILES = CCc1cc(C(=O)NC)c2nccc(N3CCc4c(cc(Cn5ccnc5)cc4-c4cn(C)nc4C(F)(F)F)C3=O)c2c1; system = Sprague Dawley rats, male, bile duct-cannulated, urine; setting = oral, 50 mg/kg, 24 h; endpoint = fraction of dose excreted; value = 0.4 ± 0.3%
SMILES = COc1cc2c(Oc3ccc4[nH]c(C)cc4c3F)ccnc2cc1OCC1(N)CC1; system = paediatric refractory sarcoma patients; setting = 10 mg; endpoint = grade 1-2 QTc prolongation; value = 0%
SMILES = COc1c(OCCCN2CCOCC2)ccc2c1N=C(NC(=O)c1cnc(N)nc1)N1CCN=C21; system = patients with advanced malignancies; setting = intravenous, dose not given, all grades, all cohorts, added: gemcitabine; endpoint = weight loss incidence; value = 24%
SMILES = C[C@]1(CO)Cc2ncn(-c3ccc(C#N)c(Cl)c3)c2C(=O)O1; system = human, plasma; setting = 10 mg, first dose fasted; endpoint = Cmax; value = 453 nM
SMILES = CCc1ccc(CC/C=C/c2ccc3c(c2)C(=O)CC3)cc1; system = Sprague-Dawley rat, male; setting = oral, 30 mg/kg/day, 14 days; endpoint = HDW; value = 23.1 g/L
SMILES = O=S(=O)(Nc1ccccc1)c1ccc(NC(=S)Nc2ccccc2)cc1; test = measured: TRIG; system = male mouse, blood; setting = oral, 20 mg/kg daily, 14 days; endpoint = blood chemistry level; value = 215 mg/dL
SMILES = CC(=O)c1c(C)c2cnc(Nc3ccc(C4CCN(CCS(C)(=O)=O)CC4)cn3)nc2n(C2CCCC2)c1=O; system = beagle dog, both sexes; setting = oral, 4 weeks, repeated dosing; endpoint = maximum tolerated dose; value = 6 mg/kg
SMILES = CCN1[C@@H](C(=O)NC23CCC(C(=O)O)(CC2)CC3)[C@H](c2cccc(Cl)c2F)[C@]2(C(=O)Nc3cc(Cl)ccc32)C12CCCCC2; system = patients with advanced solid tumours; setting = oral, 150 mg; endpoint = Neutropenia incidence; value = 62.5%
SMILES = COc1ccnc(C(=O)N[C@H]2COC(=O)[C@H](Cc3ccccc3)[C@@H](OC(=O)C(C)C)[C@H](C)OC2=O)c1OCOC(=O)C(C)C; system = silt loam soil; setting = organic carbon 1.0 %, pH 5.5; endpoint = Freundlich adsorption coefficient Kf; value = 9.36 mL/g
SMILES = Fc1ccc([C@@H]2CCNC[C@H]2COc2ccc3c(c2)OCO3)cc1; test = measured: Freezing; system = healthy volunteers; setting = oral, dose not given, given -1 h relative to LSD, added: LSD; scale = direction not given; endpoint = List of Complaints score; value = 0 score
SMILES = CCCCCCCCCCCCCCCC(=O)N[C@@H](CCC(=O)NCCCC[C@H](NC(=O)[C@H](CC(=O)O)NC(=O)[C@H](CO)NC(=O)[C@@H](NC(=O)[C@H](Cc1ccccc1)NC(=O)[C@@H](NC(=O)CNC(=O)[C@H](CCC(N)=O)NC(=O)[C@H](CO)NC(=O)[C@@H](N)Cc1c[nH]cn1)[C@@H](C)O)[C@@H](C)O)C(=O)N[C@@H](CO)C(=O)N[C@@H](CCC(=O)O)C(=O)N[C@@H](Cc1ccc(O)cc1)C(=O)N[C@@H](CC(C)C)C(=O)N[C@@H](CC(=O)O)C(=O)N[C@@H](CO)C(=O)N[C@@H](CCC(=O)O)C(=O)N[C@@H](CCCNC(=N)N)C(=O)N[C@@H](C)C(=O)N[C@@H](CCCNC(=N)N)C(=O)N[C@@H](CC(=O)O)C(=O)N[C@@H](Cc1ccccc1)C(=O)N[C@H](C(=O)N[C@@H](C)C(=O)N[C@@H](Cc1c[nH]c2ccccc12)C(=O)N[C@@H](CC(C)C)C(=O)N[C@@H](CCC(=O)O)C(=O)N[C@@H](C)C(=O)NCC(=O)NCC(=O)O)C(C)C)C(=O)O; system = human, CrCl ≥30 to <45 mL/min; setting = sc, 100 µg single dose; endpoint = abdominal distension; value = 9.1%
SMILES = CN1CC[C@@H](c2c(O)cc(O)c3c(=O)cc(-c4ccc(C(F)(F)F)cc4Cl)oc23)[C@@H]1CO; test = measured: Fatigue; system = relapsed or refractory haematological malignancies; setting = oral, dose not given, all grades; endpoint = adverse event incidence; value = 22% and 22.5%
SMILES = CC(C)(C)c1cc(-n2nc3ccc(Cl)cc3n2)c(O)c(C(C)(C)C)c1; system = reconstructed human epidermis EpiSkin; setting = 36 h; endpoint = cumulative dermal absorption; value = 63.8 ± 2.79%
SMILES = CO[C@H]1C[C@@H]2CC[C@@H](C)[C@@](O)(O2)C(=O)C(=O)N2CCCC[C@H]2C(=O)O[C@H]([C@H](C)C[C@@H]2CC[C@@H](OC(=O)NCCOCCOCCOCCOCCOCCOCCOCCOCCC(=O)N3CCc4cc(Cn5nc(-c6ccc7oc(N)nc7c6)c6c(N)ncnc65)ccc4C3)[C@H](OC)C2)C[C@@H](O)[C@H](C)/C=C(\C)[C@@H](O)[C@@H](OC)C(=O)[C@H](C)C[C@H](C)/C=C/C=C/C=C/1C; test = phase 1 dose escalation, measured: gastric haemorrhage; system = advanced solid tumour patients; setting = intravenous, 10 mg weekly, grade ≥3; endpoint = dose-reducing adverse events; value = 0%
SMILES = Clc1ccc(-c2ccccc2)cc1; system = Sprague-Dawley rats, female, serum; setting = inhalation, 23 µg/rat, 2 h after exposure; endpoint = creatinine; value = 0.3 ± 0.1 mg/dL
SMILES = CC(C)[C@@H]1NC(=O)CNC(=O)[C@H](CC(N)=O)NC(=O)[C@H](CCCNC(=N)N)NC(=O)[C@H](Cc2ccc(O)cc2)NC(=O)[C@H](C(C)C)NC(=O)[C@@H](NC(=O)[C@@H](NC(=O)[C@H](CC(N)=O)NC(=O)[C@H](Cc2c[nH]c3ccccc23)NC(=O)[C@H](C)NC(=O)[C@H](Cc2ccccc2)NC(=O)CN)C(C)C)CSSC[C@@H](C(=O)N[C@@H](Cc2cnc[nH]2)C(=O)N[C@@H](CCCNC(=N)N)C(=O)N[C@@H](CCCNC(=N)N)C(=O)N[C@@H](C)C(=O)N[C@@H](CC(N)=O)C(N)=O)NC(=O)[C@H](C(C)C)NC(=O)[C@H](CCCNC(=N)N)NC1=O; system = ICR mice, serum; setting = intraductal mammary, 10 mg/kg, day 5; endpoint = phosphorus; value = 3.24 ± 0.07 mmol/L
SMILES = O=C(O)CNCP(=O)(O)O; system = whole cow milk; setting = 20 nM nominal; endpoint = dose fraction in skim milk; value = 99.1%

A few entries again:
SMILES = Cc1cc(C)c(CNC(=O)c2cc(Cl)c3c(c2C)O[C@@](C)([C@H]2CC[C@H](N(C)C)CC2)O3)c(=O)[nH]1; system = human, relapsed/refractory NHL; setting = concentration not given, treatment-related TEAEs, grade 5; endpoint = Arthralgia incidence; value = 0%
SMILES = CCc1ccc(CC/C=C/c2ccc3c(c2)C(=O)CC3)cc1; system = Sprague-Dawley rat, male; setting = oral, 30 mg/kg/day, 14 days; endpoint = HDW; value = 23.1 g/L
